Measurements from different studies.
Each numbered part is a random draw from the data of one study; scales do not carry over between parts. Positions count from the first letter of the parent shown.

Series 1 — technique: competition protein-binding microarray; molecule type: double-stranded DNA, one strand shown; medium: in vitro; concentration: 2 µM; with: Pho4 competitor, 0.05 µM; direction: higher = stronger binding; measurement: fluorescence intensity; shared flanks, not repeated: … GTCTTGATTCGCTTGACGCTGCTG
Target: Centromere-binding protein 1, full length, His-tagged (CBF1, Saccharomyces cerevisiae, UniProt P17106, residues 1-351)
Sequence of UniProt P17106 (whole entry, looked up): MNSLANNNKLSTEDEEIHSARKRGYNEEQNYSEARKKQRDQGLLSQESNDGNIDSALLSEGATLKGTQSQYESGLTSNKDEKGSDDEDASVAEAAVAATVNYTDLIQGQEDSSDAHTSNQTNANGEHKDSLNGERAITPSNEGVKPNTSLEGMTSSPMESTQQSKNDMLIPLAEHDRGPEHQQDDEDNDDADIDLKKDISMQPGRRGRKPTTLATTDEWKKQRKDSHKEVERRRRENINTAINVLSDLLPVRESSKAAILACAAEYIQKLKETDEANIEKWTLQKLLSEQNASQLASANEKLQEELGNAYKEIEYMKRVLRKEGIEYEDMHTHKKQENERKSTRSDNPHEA
Setting: whole 60-bp probe, lowest competitor level
Sequence = TTGTTGCCACAAATGAACGTGGAAGGAGTTTCTGGG; value = 73.7 a.u.
Sequence = CGTCCTAGTGATTTTCACGTGTGCTCCATGAGGAAG; value = 718 a.u.
Sequence = CGTCCTAGTGATTGGACCGTGGGTGCCATGAGGAAG; value = 64.3 a.u.
Sequence = CTTCAACAACATCGGCACGGGAGTGGGATTTAGCGG; value = 106 a.u.
Sequence = TTCAACGCATTGAGACACATGGCTAACTACCCAGTA; value = 79.1 a.u.
Sequence = TGCGCAACAACTTGCGGGGTGGGTGTATGTCTAGAA; value = 70.5 a.u.
Sequence = AGAAAGAAAGACGACCACGTGACGGGAACGAAGAGC; value = 7240 a.u.
Sequence = CGTCCTAGTGATTGGATGGTGGGTGCCATGAGGAAG; value = 83.2 a.u.
Sequence = CTTTCCCGATCTTGGTAAGTGGGTGTAGCACATTTG; value = 71.7 a.u.
Sequence = TGCGCAACAACTTGTCACGTAACTTTATGTCTAGAA; value = 100 a.u.
Sequence = CCATTGTACGGTTCGTACGTGGGTACAATGAATTAC; value = 71.9 a.u.
Sequence = ATGGACCCGCATAGAAACGTGAGACTGAGAGGATAT; value = 122 a.u.
Sequence = CCGTCTACAACTCGGCACGCAAGTAGTCCGCCTAGC; value = 66.1 a.u.
Sequence = CATACCCAACCTTTTCACGTGGGATAAGATATTTGT; value = 866 a.u.
Sequence = TTGATTAATGATTCCTTTTCCTCTTCTAGTGAAGTA; value = 74.5 a.u.
Sequence = ATTAAAGAAAAATTAAACGTGATGGGTCTATCGAGC; value = 297 a.u.

Series 2 — technique: RNA Bind-n-Seq; molecule type: RNA; medium: in vitro; concentration: 200 nM; setting: whole 134-nt RNA, ends assumed; with: 150 mM LiCl; baseline: input library; direction: higher = stronger binding; measurement: log2 enrichment; all molecules: 7-deaza-guanosine replaces G
Target: Ras GTPase-activating protein-binding protein 1, full length (G3BP1, Homo sapiens, UniProt Q13283)
Sequence of UniProt Q13283 (whole entry, looked up): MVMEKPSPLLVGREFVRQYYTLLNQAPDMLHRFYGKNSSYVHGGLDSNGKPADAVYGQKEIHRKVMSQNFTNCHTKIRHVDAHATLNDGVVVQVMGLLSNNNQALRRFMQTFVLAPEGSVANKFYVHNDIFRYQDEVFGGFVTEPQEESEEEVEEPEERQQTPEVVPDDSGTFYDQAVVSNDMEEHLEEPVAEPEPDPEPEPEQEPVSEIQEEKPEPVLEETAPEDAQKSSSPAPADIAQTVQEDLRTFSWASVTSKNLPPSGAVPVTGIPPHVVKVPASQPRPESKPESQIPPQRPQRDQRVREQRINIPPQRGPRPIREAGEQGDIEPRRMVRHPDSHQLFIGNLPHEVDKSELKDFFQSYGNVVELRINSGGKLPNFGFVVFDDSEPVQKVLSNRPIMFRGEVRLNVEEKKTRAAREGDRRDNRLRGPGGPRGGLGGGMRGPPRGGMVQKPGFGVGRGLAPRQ
Shared flanks, not repeated: GGGAGUUCUACAGUCCGACGAUC … UGGAAUUCUCGGGUGUCAAGG
Sequence = GUCCUGUGCUACACAUCGUAUGUACCGAAUCGGGGCCCCCGGCCCCCGGCCCCCGGGGAAAGUAUUAUGUUACGCCGUUCGGAUCUGCAC; value = -1.06
Sequence = CAAGUCCUGUGCUACACAUCGUAUGUACCGAAUCGGGUGGGUUUGGGAAAAAGGGAAAGUAUUAUGUUACGCCGUUCGGAUCUGCACUUC; value = -0.152
Sequence = CACAGACAACACGCACCCACACAGACACAGAGGGAAGGGGUUGGGAUGGGGACAGGGUGCACAGAAGGGCGGGGUAGGACCCCAGCCCCU; value = 0.0152
Sequence = ACCAUGCAGGUGGGCAUCUUUGGGAAGUGGGGCAAGGGGGGGAUAGGGAGGGGGGUAACACUUUGGGAACACGUGGUCCCAGGUCGUUUC; value = 0.0544
Sequence = GUCCUGUGCUACACAUCGUAUGUACCGAAUCGGGUGGGAAAAAAAGGGAAAAAAAGGGAAAGUAUUAUGUUACGCCGUUCGGAUCUGCAC; value = 0.21
Sequence = GUCCUGUGCUACACAUCGUAUGUACCGAAUCGGAAAAAAGGAAAAAAGGAAAAAAGGGAAAGUAUUAUGUUACGCCGUUCGGAUCUGCAC; value = -0.79
Sequence = ACCAUGCAGGUGGGCAUCUUUGGGAAGUGGGGCAAGGGGGGGAUAGGGAGGGGGGUAACACUUUGGGAACAGGUGGUCCCAGGACGUUUC; value = 0.21
Sequence = UCAAGUCCUGUGCUACACAUCGUAUGUACCGAAUCGGAGGUUUGGUUUUUUUGGAAAGUAUUAUGUUACGCCGUUCGGAUCUGCACUUCC; value = -0.0529
Sequence = UCAAGUCCUGUGCUACACAUCGUAUGUACCGAAUCGGAAAGGGAAAGGAAAGGGAAAGUAUUAUGUUACGCCGUUCGGAUCUGCACUUCC; value = -0.102
Sequence = CCUGUGCUACACAUCGUAUGUACCGAAUCGGGGUUUUUUUGGGGAAAAAAAGGGGAGGGGAAAGUAUUAUGUUACGCCGUUCGGAUCUGC; value = -0.354
Sequence = CACAGACAACACGCACCCACACAGACACAGAGGGAAGGGGUUGGGAUGGGGACAAAGUGCACAGCAGGGCGGGGUAGGACCCCAGCCCCU; value = -0.0152

Series 3 — technique: RNA Bind-n-Seq; molecule type: RNA; medium: in vitro; concentration: 365 nM; baseline: no-protein control; direction: higher = stronger binding; measurement: RBNS enrichment (R)
Target: RNA binding protein fox-1 homolog 2, RRM domain, GST-SBP tag (RBFOX2, Homo sapiens, UniProt O43251-10, residues 100-194)
Setting: natural RNA segment, single round, ends assumed
Shared flanks, not repeated: GGGAGUUCUACAGUCCGACGAUC … UGGAAUUCUCGGGUGCCAA
Residues (chain): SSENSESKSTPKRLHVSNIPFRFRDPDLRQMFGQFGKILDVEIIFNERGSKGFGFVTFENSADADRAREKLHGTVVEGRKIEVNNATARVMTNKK
Sequence = GUGCUCAGUCAAGUGAUGGCUCCCUGCCCUUCUGUGCUCCCAGCCUGCCUCCCCCAGGGCAGGUUGGAGCCCUCAGCCCUGGCUUCUGCUCUCAGCCAGCACCACUGCCC; value = 0.644
Sequence = UUCCCUCGCCUUUCAAGCACGCGGACAUCGUCACCACCACUACUCACAAGACUCUUCGAGGGGCCAGGUCAGGGCUCAUCUUCUACCGGAAAGGGGUGAAGGCUGUGGAC; value = 1.04
Sequence = GCAGGACAGUACGAUUUGGGGAGAACCCAGCUCCCCACUUUAUCUGCAGACUCUGGGACCUGACAAAACAGUCAGAGCCUGAGUGCACUGCAGCCUGAACUCCCUUGAGC; value = 0.326
Sequence = UGUCACAUGUGGGCCAAGAAUAGAGUCACAUGUGGUGGAAAGAUGAGGAGUUAGGCUGUAGAAGUGACAGUUUCCAGUCAAAUCUGUAAACCCAGCCCCCAAGCUGAGAC; value = 0.401
Sequence = GAGUUGAAUGUGCACACGUUUAUGAGAGGCCUUUGGGUGAGCUUUCUGCUCAUUCCUUGGUUUGUCUUGGGUCCCACUGGGCAGGUGUCUAGCACUGAGAGGGAGAGUGU; value = 0.696
Sequence = UCAGUUUUCCUCUGAUGUUUUUGAGGUACUGUGUAUUUGCAGAAGUUUAAGCAGAAGGGUUUUGUUUCUAUUGUAAGUUAGGUUCUAAAAGUGUAUAAUCUGAUACUCUA; value = 0.618
Sequence = CAUAUCAAGAUGCGACCCAAGGGGCUAAGUGGGAACAGUGGUUAUGUGGACUCGUAAGAUUCACAGAGAAUGUGUGCUCUGUUGUGAUUCUCUUGUCAUAGUCCUGGUUU; value = 3.42
Sequence = UAUGCAACGUAAGAUGUCCUCCUUGAUAGAAGUCUUAGCUCCUGUGUUACAAGGGAGAACUCAUUUGAGAUCAGUCUGUUGGCAUUGCAAUGAAGUGCUUUGUAUCAGGA; value = 0.962
Sequence = AAAUGUGGAAACUGUGUAUCUUAUAGAGCCUCCUCUCGUCCUACUCAUCCCUCAGCAGAAAAAUGUGGGCCUAAAAUGAGUUGUGUCACUCAGCAAACAUUUCCUGAGUA; value = 0.25
Sequence = CAGGGUGGCGCAGCUUUCUGUGUGAUGCAGAUGUGUCCUGGUUUCGGCAGCGUAGCCAGCUGCUGCUUGAGGCCAUGGCUCGUCCCCGGAGUUGGGGGUACCCGUUGCAG; value = 1.19
Sequence = AGGGAAGGCUGCGGGAAUCAUGUUAAGCAGCUUCAUUAAAUGACAUCAUCACGUGUCUAAACAGCUUAGACGUUCUUCUAUACUUGAAACACUCUCAUACAGAUGGAUGC; value = 0.458
Sequence = GAGUUGCCUGGGAUUGGGAGCUGUGGGUGGUGCAAGUCAGGGAGUGGGCCAGGAGAGGCCCGGGUUUUCUGUUUGAGCUAUACUCUGACCCAGGAUGUUAGAGCACACUG; value = 1.59

Series 4 — target: CCNE1, cyclin fold, Cln2 fusion (human); technique: yeast growth competition, sequencing; medium: yeast; setting: strong parent motif; baseline: not given; direction: higher = stronger binding; measurement: normalised enrichment score
Starting sequence: CDKN1A docking peptide (human); SKACRRLFGPVDS
Change = SKACRRLFGPVFS [D12F]; value = 3.28
Change = SKACRVLFGPVDS [R6V]; value = 5.53
Change = SKACRRLHGPVDS [F8H]; value = 0.122
Change = SKACRRLFGYVDS [P10Y]; value = 4.32
Change = SKACRRLFGKVDS [P10K]; value = 3.95
Change = SKHCRRLFGPVDS [A3H]; value = 3.1
Change = SKACRRLFKPVDS [G9K]; value = 3.34
Change = SKVCRRLFGPVDS [A3V]; value = 6.15
Change = SKACRRLFGPVKS [D12K]; value = 3.82
Change = SPACRRLFGPVDS [K2P]; value = 4.58
Change = SKACRDLFGPVDS [R6D]; value = 1.46
Change = SKACRRLFGPVDA [S13A]; value = 5.49
Change = SKACRRLFPPVDS [G9P]; value = 5.7
Change = SKACRRLFGIVDS [P10I]; value = 3.83
Change = SFACRRLFGPVDS [K2F]; value = 3.86
Change = SKACRELFGPVDS [R6E]; value = 1.92
Change = SKACRRLFGPRDS [V11R]; value = 4.43

For quick reference, copied from above (series 2):
Sequence = ACCAUGCAGGUGGGCAUCUUUGGGAAGUGGGGCAAGGGGGGGAUAGGGAGGGGGGUAACACUUUGGGAACACGUGGUCCCAGGUCGUUUC; value = 0.0544
Sequence = GUCCUGUGCUACACAUCGUAUGUACCGAAUCGGGUGGGAAAAAAAGGGAAAAAAAGGGAAAGUAUUAUGUUACGCCGUUCGGAUCUGCAC; value = 0.21
Sequence = GUCCUGUGCUACACAUCGUAUGUACCGAAUCGGAAAAAAGGAAAAAAGGAAAAAAGGGAAAGUAUUAUGUUACGCCGUUCGGAUCUGCAC; value = -0.79
Sequence = ACCAUGCAGGUGGGCAUCUUUGGGAAGUGGGGCAAGGGGGGGAUAGGGAGGGGGGUAACACUUUGGGAACAGGUGGUCCCAGGACGUUUC; value = 0.21
Sequence = UCAAGUCCUGUGCUACACAUCGUAUGUACCGAAUCGGAGGUUUGGUUUUUUUGGAAAGUAUUAUGUUACGCCGUUCGGAUCUGCACUUCC; value = -0.0529
